# Results pooled from the literature.
# A part holds a random share of what one study measured.

# Study 1 — method: RNA Bind-n-Seq; molecule type: RNA; sample: in vitro; concentration: 200 nM; setting: whole 134-nt RNA, ends assumed; together with: 150 mM LiCl; reference: input library; direction: higher = stronger binding; library: 7-deaza-guanosine replaces G
# Target: Ras GTPase-activating protein-binding protein 1, full length (G3BP1, Homo sapiens, UniProt Q13283)
# UniProt Q13283, sequence (whole entry, looked up): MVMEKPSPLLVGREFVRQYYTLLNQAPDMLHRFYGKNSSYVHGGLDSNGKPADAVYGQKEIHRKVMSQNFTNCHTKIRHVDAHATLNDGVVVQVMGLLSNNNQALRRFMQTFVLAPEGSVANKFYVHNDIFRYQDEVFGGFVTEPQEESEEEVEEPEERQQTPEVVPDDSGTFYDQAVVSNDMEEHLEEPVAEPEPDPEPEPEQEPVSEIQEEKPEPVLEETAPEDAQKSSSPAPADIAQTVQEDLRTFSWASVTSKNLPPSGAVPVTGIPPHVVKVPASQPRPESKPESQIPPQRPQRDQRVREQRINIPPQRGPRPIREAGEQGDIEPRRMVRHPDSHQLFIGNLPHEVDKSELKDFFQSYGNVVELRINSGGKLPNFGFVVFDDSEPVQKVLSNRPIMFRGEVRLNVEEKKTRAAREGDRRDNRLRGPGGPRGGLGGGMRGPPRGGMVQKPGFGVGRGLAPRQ
# Shared flanks, not repeated: GGGAGUUCUACAGUCCGACGAUC … UGGAAUUCUCGGGUGUCAAGG
Strand,log2 enrichment
GUCCUGUGCUACACAUCGUAUGUACCGAAUCGGGUGGGAAAAAAAGGGAAAAAAAGGGAAAGUAUUAUGUUACGCCGUUCGGAUCUGCAC,0.21
GCAGGAAGUAAAAACAAAUGGAAAUAAAUCGGAUAGUGGCAGGGGUGGGGGUUGCUAAGGAAAGGGUGGGAUGGGAGUGGGUAAAGAGUU,0.255
AAGUCCUGUGCUACACAUCGUAUGUACCGAAUCGGGGUUUGGGGUUUGGGGUUUGGGAAAGUAUUAUGUUACGCCGUUCGGAUCUGCACU,-0.357
AAUGUGUCCUCCCUGUCCAAAUUGGGAAUGACUUAAUGUCAAUUUGUUUGUUGGUUGUUUUAAUAAUACUUCCUUAUGUAGCCAUUAAGA,-0.126
CCUCAAGUCCUGUGCUACACAUCGUAUGUACCGAAUCGGUGGGGUGGUGGGGAAAGUAUUAUGUUACGCCGUUCGGAUCUGCACUUCCAG,-0.0233
UGGCCCUGGUGGCAUGCGGGGAGGAAGAGGUGGCCUCAUGGAUCGUGGUGGUCCCGGUGGAAUCUUCAGAGGUGGCCGUGGUGGAGACAG,0.329
CCUCAAGUCCUGUGCUACACAUCGUAUGUACCGAAUCGGCGGGGCGGGGCGGGAAAGUAUUAUGUUACGCCGUUCGGAUCUGCACUUCCA,-0.2
AGUCCUGUGCUACACAUCGUAUGUACCGAAUCGGGGUUUUGGGGUUUUGGGGUUUUGGAAAGUAUUAUGUUACGCCGUUCGGAUCUGCAC,0.473
UGGGAGGUGGAUUUUGUUUAUUUUUUUAGCUCAUUUCCAGGGGUGGGAAUUUUUUUUUAAUAUGUCUCAUGAAUAAAGUUGUUUUUGAAA,-0.684
GCAGGAAGUAAAAACAAAUGGAAAUGCUUCGGAUAGUGGCAGGGGUGGGGGUUGCUAAGGAAAGGGUAGGAUGGGAGUGGGUAAAGAGUU,0.0616
CCUGUGCUACACAUCGUAUGUACCGAAUCGGGGUUUUUUGGGUUUUUUGGGUUUUUUGGGAAAGUAUUAUGUUACGCCGUUCGGAUCUGC,0.0158

# Study 2 — method: protein binding microarray; molecule type: double-stranded DNA, one strand shown; sample: in vitro; concentration: not given; reference: not given; direction: higher = stronger binding
# Target: Histone acetyltransferase KAT6A, winged helix 2, GST fusion (KAT6A, Homo sapiens, UniProt Q92794, residues 85-181)
# Setting: 8-mer, flanks averaged, mean of 2 arrays, mostly near background
# Target sequence (chain): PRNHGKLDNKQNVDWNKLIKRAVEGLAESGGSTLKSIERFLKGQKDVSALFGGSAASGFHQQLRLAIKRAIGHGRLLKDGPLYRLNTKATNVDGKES
Strand,E-score
AAGAATAC,0.0248
ACTTGATG,-0.0734
TGCTATAA,0.0727
TAAGATAA,-0.082
CAGCGAGG,0.00564
AACGTTAG,-0.116
AAAGGTCG,-0.159
GAAGTTAC,-0.1
AGCCACGC,0.0386
CAAAGCAA,0.273
GTATGGTA,-0.162
ACCAACCG,0.0842
CTTCACAC,-0.0121
AACTAGCG,-0.061
AAACCCGA,0.126
CATGAATA,-0.193
CCATCGAA,-0.134
ATTAAGTA,-0.0689
GAATGCCA,0.154
AAGGTAGA,-0.125
AACCCGTC,-0.125
TGACAGCA,0.118
AAGCCAAG,-0.00301
AGCCCGTA,-0.195
ATCGCCAG,0.106

# Study 3 — method: RNA Bind-n-Seq; molecule type: RNA; sample: in vitro; concentration: not given; setting: RNA with constant flanks, ends assumed; reference: input RNA pool; direction: higher = stronger binding
# Target: RING finger protein unkempt homolog, zinc fingers 1-6, GST-SBP tag (UNK, Homo sapiens, UniProt Q9C0B0, residues 30-357)
# Shared flanks, not repeated: GGGAGUUCUACAGUCCGACGAUC … CAACAGAGGAUUGAGCAUCA
# Construct (chain): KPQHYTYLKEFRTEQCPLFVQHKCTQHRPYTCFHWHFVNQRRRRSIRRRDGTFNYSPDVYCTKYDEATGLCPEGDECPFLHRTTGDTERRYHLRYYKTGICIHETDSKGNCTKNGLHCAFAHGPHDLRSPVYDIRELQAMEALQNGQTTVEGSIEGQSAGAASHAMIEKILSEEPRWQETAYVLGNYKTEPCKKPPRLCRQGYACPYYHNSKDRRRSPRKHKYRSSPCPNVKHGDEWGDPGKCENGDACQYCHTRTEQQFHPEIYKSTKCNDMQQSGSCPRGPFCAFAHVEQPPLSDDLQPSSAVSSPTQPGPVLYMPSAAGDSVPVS
Strand,bound/input enrichment [ratio]
GCAGACUUGGUAAAACCCAGGGUACAGUUAGAUUUUUUGUUGUUGUUGUAUUAUUUAAAUUACCGCCUUCCAAAAACUGUUUUUGAUCAUAAUUGCUGUAUCAUUUGUAAUUUUUUUUAA,10.9
CAUCAGCUGUCUACACCACAAAAAGCAAGUCAACACCAAGUUCUGUUUUUGUUAUCAGAUGCCGCACAUGCUAAGAAUCCAACCCAUUCCAUUAAAAAAGUACCUACCUCUGCUUUAGUU,0.409
CAUUAAUUUUAAAUUAAGUAAACUAAAUAAAUAAAAAUAAACUUUUUUAAAGAUGUGUGGUUCCGGAUGGGCUUUAAGAAAGUGAGUCUACCAAAUGCCAGUUAAAGAGCAAGUUAGGGG,1.52
GAGCCAAGUCGGCAGUUUGUAAAGGACUCCAUUCGGCUGGUUAAAAGAUGCACUAAACCUGACCGAAAAGAAUUCCAGAAGAUUGCCAUGGCAACAGCAAUAGGAUUUGCUAUAAUGGGA,0.199
UCUGAUAAACUUAACAAUGGGGGAUCUGAUAGCCCUUGUGACUUGAAAUCACCUAAUGCAUUCCGUGAAAAUCGCCAGGACUAUUUUGAUUAUGAGUCAACCAAUCCAUUUACAGCAAAA,0.225
CUUCCGUUUAUUGUUUCACAUAGGUUGUCUAAUACCUUGAGCUUAGAUAUUCAUGAAAAUCACCGCCUUGCACUUCUAGGAAAGAAGAAAUCAAGCAGCUUAACAUUACCACCCAAAUAC,0.622
GUAUGCCAGGGAACACACAUUCUCUUUCGAGAAUUCAGCUUCGUCCAAGCCACCCCCCACAACCGGGUAUCAUUUUUACGGGCCUUCUGGAGAUGCUUCCGAACUGUGGGCAAAAAUGGC,0.624
AUGUAUUCAAUAGAUCUCUACAACUAUGCCCCUUCUAGCAGGGAUACCUAUAACUUUGUGUCCGCACCAUGGAGAAUACAAUGUUUUUGCAACAUAUGAGAGAAGAUAGUUCUAGCCAUG,0.434
GAAAAAGAGCAGGAAGUGAAUGCUCGUUUACUUCAUUGUGUGAGUAAACAGAAAAUUUUACUCCGCCAGGCUAGAAGAACUCAGAAACACUUGCAGAUGCUCCUGGCAAAGCAUGUUGUU,0.127
CCGCCUCGGGUCGUGGAGCCAGGAGCGACGUCACCGCCAUGGCAGGCAUCAAAGCUUUGAUCCGUUUGUCCUUUGGAGGAGCAAUCGGACUGAUGUUUUUGAUGCUUGGAUGUGCCCUUC,0.0587
AUACAUGAUCUAGCAAGCCAAGCUGCCACCAUUUGCAGUCCAGAUUUUUUACUAGAUGCUUCCGAACUAUGUAAACAUACUUUAAUGGCUGUAGAGCUUUCCAGACAAUGCCAAAUGGAU,0.924

# Study 4 — method: RNA Bind-n-Seq; molecule type: RNA; sample: in vitro; concentration: 365 nM; reference: no-protein control; direction: higher = stronger binding
# Target: RNA binding protein fox-1 homolog 2, RRM domain, GST-SBP tag (RBFOX2, Homo sapiens, UniProt O43251-10, residues 100-194)
# Setting: natural RNA segment, single round, ends assumed
# Shared flanks, not repeated: GGGAGUUCUACAGUCCGACGAUC … UGGAAUUCUCGGGUGCCAA
# Residues (chain): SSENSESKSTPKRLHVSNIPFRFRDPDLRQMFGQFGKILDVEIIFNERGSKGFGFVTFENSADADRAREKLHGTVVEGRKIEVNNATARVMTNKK
Strand,RBNS enrichment (R)
AUCCUACAACUCACAUUAGAGAACAUCCUGGCUUUUGAGCACUUUUCAAACAAUCAAGUUGACUCACGUGGGUCCUGAGGCCUGCAGCACGUCGGAUGCUACCCCACUAU,0.43
AAAUAUUUUAAGGCAAGUCCAUAGGUCUGAAUCUCUUAAGAAUUCUCGGCCUCUGUGGGAUUUAGGGAAGCAUUAUAAAUGCAUUAAUCCUUAUAGUCAAUUCUGUGCCU,0.368
UGUGGGUCAACCAUGAAGAUGUGGCAUUGCAGACGGGGGAACAUGUGGAUGCAUGGCUAUCGCCCUGAACAGUCCCUGCAGCUACUUGUGUUAACACAGAACUGAUGUUU,0.221
UUAAAGCUACAUCAUGCUGUAGUGUUGGCAUUUUUAGUUAAUAGGGCAUUGUCUUCCUUGUAUAUGUUUGUCAUAUUUCAUUUCACCAAAUAAACACAUACUCAUUGUGA,0.914
AGGAUUGACAGUAACAAAUUCUCAAAGCUUGACUGGAGCUGGCUGCAGCUCAAAACAGUGCCUCCUGCCUCUUUAGAGCGGGGCUGCUCGGCAGCAGUGACUGCAGCCCC,0.391
AAAUCUCUUAAACUCUCUUCUUCCAUUAGAAUGCUACAAGUAACUCAGUGAAGGCCCAUGAAGGAAAUUGGGACUAGUUUAUAGGAGAACGUAUCAAUACAGUUUAUAAA,0.965
AAAGCAGCAAUAAAACUGCUCCUACCCACAGCCACGGAUCUUCCAAACCUAGCCCCGCUCUCAGGCCUCUACCCAGCAGCCAGAACACAGCAAGAGUUGAGGUGAAGCAA,0.341
GUCCAGUGGAGUGGGGGAAUGCUUCCAUUUGUUCUGCCCUCCCUUACUGCCCAGAAUGUUAGCAUAAAACAACACAGGAAGCUGAUAAAAAUAGCAGCUGUUGUUUCUCU,0.775
CAGUUUUACAUGUAGGUCAUGACUAUACCUGGAUUUUAUCAUUAAGUUAACUUUAAAGUAUAUACAGUUUGCAAAAAAUGAUUCAAAUUAAUUGGUUUGUAUAUGUUUGU,0.696
GCGCGAGUGCGUGUGAGAAGAACCGACCCACCCCGCGCAAGGGGAAGCCUCCUGUCUCCCCUUUCCCCGCGUCCGAGAAGGCGGAAACCCACAGUGUUACCUGACUUAUG,0.214
GAAAGCUUCCCUGCAAUCUUGGGGUUUGGCUUUAGUUUUCUUUUCCUUGAUUUCUCAGUAGGUGCUAGAAUCCAGUUCACACCCUUCACUGUGCGUGCAGACACACUGAC,0.359
AGACCAUACCCAACUCAUGUGCAUGUGCCGUUUUUGCUUCAAGCUCAGUAGCAGGACCUGCCCCGAGCCCCCUGCUCCUUGCCCCUCUGUGAGGAGUUACGGAGAGGGCU,3.74

# A few entries again (study 4):
Strand,RBNS enrichment (R)
AAAGCAGCAAUAAAACUGCUCCUACCCACAGCCACGGAUCUUCCAAACCUAGCCCCGCUCUCAGGCCUCUACCCAGCAGCCAGAACACAGCAAGAGUUGAGGUGAAGCAA,0.341
GUCCAGUGGAGUGGGGGAAUGCUUCCAUUUGUUCUGCCCUCCCUUACUGCCCAGAAUGUUAGCAUAAAACAACACAGGAAGCUGAUAAAAAUAGCAGCUGUUGUUUCUCU,0.775
CAGUUUUACAUGUAGGUCAUGACUAUACCUGGAUUUUAUCAUUAAGUUAACUUUAAAGUAUAUACAGUUUGCAAAAAAUGAUUCAAAUUAAUUGGUUUGUAUAUGUUUGU,0.696
GCGCGAGUGCGUGUGAGAAGAACCGACCCACCCCGCGCAAGGGGAAGCCUCCUGUCUCCCCUUUCCCCGCGUCCGAGAAGGCGGAAACCCACAGUGUUACCUGACUUAUG,0.214
